Values quoted from earlier work, collected from citations in different studies.
Protocols differ between the studies behind these lines.
Organism: Plasmodium falciparum

For `COc1cc(/C=C/C(=O)CC(=O)/C=C/c2ccc(O)c(OC)c2)ccc1O`, the IC50 was ~5000 nM (parasite growth; chloroquine-resistant).
`Cc1c(C2(c3ccc(C(F)(F)F)nc3)CC2)c[nH]c1C(=O)N[C@H](C)c1nc[nH]n1` — result for “average blood concentration for ED90”: 1500 nM (3D7^0087/N9, humanized SCID mouse, blood; dose not given).
`CCCCCCCSc1ccc(CC(C)NCC(O)c2cccc(Cl)c2)cc1` (stereo not drawn) has an IC50 of 180 nM (whole cell extended time; 3D7; 72 h).
The IC50 of `CC(C)(C)NCc1ccc(Nc2ccnc3cc(Cl)ccc23)cc1O` is reported as 13.2 nM (parasite growth; K1; literature value).
For `Cc1c(C)c2c(c(C)c1O)CC[C@](C)(C(=O)NC1CCC(CN3CCC(c4c[nH]c5ccccc45)CC3)CC1)O2` (stereo partly drawn), the IC50 was 880 nM (whole cell extended time; 3D7; 72 h).
`O=C(NCCN1CCCC1)c1cc(-c2ccc(CN3CCOCC3)cc2)nc2ccc(F)cc12`: “IC50 fold change” 40 to 50 fold (3D7 or Dd2 E134D or E134G mutant, asexual blood stage; reference: parental line).
With `N/C(CC(O)c1cc2c(F)cc(F)cc2c2cc(C(F)(F)F)ccc12)=N\c1ccc(F)cc1` (stereo not drawn) the IC50 was 13 nM (cell growth; Dd2 T648M mutant).
`C/C=C1\NC(=O)[C@H]2CSSCC/C=C/[C@H](CC(=O)N[C@H](C(C)C)C(=O)N2)OC(=O)[C@H](C(C)C)NC1=O` gave a resistance index of 1.1 (reference: IC50 Dd2 over IC50 3D7).
`Oc1cccc(C2CCCN(CCc3c[nH]c4ccccc34)C2)c1` (stereo not drawn) gave an IC50 of 860 nM (whole cell extended time; 3D7; 72 h).
For `Cc1cc(Nc2ccc(S(F)(F)(F)(F)F)cc2)n2nc(C(C)(F)F)nc2n1`, “unbound plasma concentration for ED90” read 50 nM (3D7^0087/N9, humanized SCID mouse, plasma).
The IC50 of `O=C(NC1CCC(CN2CCC(c3c[nH]c4ccccc34)CC2)CC1)c1[nH]c(=O)[nH]c(=O)c1F` (stereo not drawn) is reported as 800 nM (whole cell extended time; 3D7; 72 h).
`c1ccc2c(c1)[I+]c1ccccc1-2` has an EC50 of 0.06 nM.
